Experimental data of several laboratories.
Values joined by “and” are separate records of one study, mostly repeats; a detail may differ. ± gives the spread as reported.

Compound	test	test system	conditions	scale	quantity	value
Cc1noc(C)c1-c1cc(C(O)(c2ccccn2)c2ccccn2)c2nc(C3CC3)[nH]c2c1	refers to: HEXIM1 expression	human, peripheral blood	3 mg, day 1, 1604 study		maximum induction	16%
O=C(OC(C(F)(F)F)C(F)(F)F)N1CCN(Cc2cccc(Oc3ccccc3)c2)CC1	PET blocking study	rhesus monkey, brain FCX	0.01 mg/kg, compound pretreatment, with: [18F]T-401 tracer		k4	0.0994 min⁻¹
CC(=O)Oc1cc2c(s1)CCN(C(C(=O)C1CC1)c1ccccc1F)C2 (stereo not shown)	platelet aggregation, light transmission aggregometry	human patients, platelet-rich plasma	3 h, with: TRAP 5 µM		patients with IPA above 80%	9.5%
Cc1n[nH]c2ccc(-c3cc(OC[C@@H](N)Cc4ccccc4)cnc3-c3ccoc3)cc12	kinase binding, competitor, MIB/MS competition, refers to: NIK1	Candida albicans cell lysate	100 nM	relative to: DMSO	log2 fold change	-0.731
Cn1cc(Nc2nccc(-c3ccc4c(c3)CN(C3COC3)CC[C@H]4NC(=O)c3cn(C(C)(C)C)nn3)n2)cn1	refers to: NGF signalling	mouse splenic B cells, mouse	30 mg/kg, IgD-activated B cells in vivo	relative to: vehicle, direction not given	pathway activation z-score	4.24
Cc1cccc(N(O)N=Nc2ccc(S(=O)(=O)Nc3onc(C)c3C)cc2)c1	carrageenan-induced paw edema	Wistar rat	oral, 100 mg/kg, 3 h after carrageenan, with: carrageenan 1% subplantar	higher = more edema	paw edema volume	5.31 ± 0.51 a.u.
COc1cc(F)c([C@@H]2CNC(=O)[C@H]2NC(=O)Nc2ccccc2)c(F)c1	LV haemodynamics	rat, myocardial ischaemia-reperfusion	1 mg/kg, 1008 h, 6 weeks post-injury		left ventricular end-diastolic pressure	5 ± 6 mmHg
CC1(C)CCC2(CC1)N[C@@H](C(=O)N[C@@H]1CC[C@@H](C(N)=O)OC1)[C@H](c1ccnc(Cl)c1F)[C@]21C(=O)Nc2cc(Cl)ccc21	RECIST	patients with solid tumours	dose not given	relative to: patients	stable disease	43.8%
Cc1noc(NS(=O)(=O)c2ccc(N=NN(C)O)cc2)c1C	carrageenan-induced paw edema	Wistar rat	oral, 100 mg/kg, 3 h after carrageenan, with: carrageenan 1% subplantar	higher = more edema	paw edema volume	5.37 ± 0.38 a.u.
CC(C)NCC(O)c1ccc(O)c(O)c1 (stereo not shown)		ventricular cardiomyocytes, C57BL/6 mouse	dose not given, 0.32 s		sarcomere length	1.72 µm
COc1ccccc1[C@H](Cn1c(=O)n(C(C)(C)C(=O)O)c(=O)c2c(C)c(-c3ncco3)sc21)OC1CCOCC1		human	20 mg, post-treatment		blood HDL level	37.2 ± 5.04 mg/dL
Cc1noc(NS(=O)(=O)c2ccc(N=NN(O)c3ccccc3)cc2)c1C	carrageenan-induced paw edema	Wistar rat	oral, 100 mg/kg, 1 h after carrageenan, with: carrageenan 1% subplantar	higher = more edema	paw edema volume	5.31 ± 0.46 a.u.
CC#CC(=O)N[C@H]1CCCN(c2c(F)cc(C(N)=O)c3[nH]c(C)c(C)c23)C1	refers to: IgG	human	0.3 mg once daily, day 21	relative to: baseline	serum immunoglobulin	5.4 % change
C[C@H](Oc1ccc(Br)cc1-c1ccon1)C(=O)O	response peak	human, tibialis anterior muscle	1200 mg, 30 Hz+30 s		difference from placebo	3.44%
Cc1ccc(C(=O)OCc2ccc([C@@H](CN)C(=O)Nc3ccc4cnccc4c3)cc2)c(C)c1	refers to: pMLC-2 Thr18/Ser19	ocular hypertensive rabbit, trabecular meshwork	topical, 0.02 %, 24 h	direction not given	pMLC-2 immunostaining score	2 ± 0.8
N#Cc1ccc2c(-c3ccncc3)c(-c3ccc(F)cc3)nn2c1	kinase binding, competitor, MIB/MS competition, refers to: PKH2	Candida albicans cell lysate	100 nM	relative to: DMSO	log2 fold change	0.667
Cc1cc(F)cc2c(CCC(=O)N[C@@H]3C(=O)NC[C@H]3O)c(-c3ccc(F)cc3)[nH]c12		mice, APOL1 G2, single copy	day 5, before treatment, with: IFNγ plasmid injection		UACR	738 µg/mg and 963 µg/mg and 2210 µg/mg and 767 µg/mg and 565 µg/mg and 1400 µg/mg
COCCOC(=O)C1=C(C)NC(C)=C(C(=O)OC(C)C)C1c1cccc([N+](=O)[O-])c1 (stereo not shown)	whole-cell current clamp	DRG neurons, naive rat	dose not given		resting membrane potential	-64.6 mV and -69.2 mV and -62.9 mV and -75.6 mV and -64.8 mV and -68.7 mV
COc1ccc(-c2cncc(N[C@@H](C)c3cccc(NC(=O)c4cncc(C)c4)c3)n2)cc1OC	refers to: rno-miR-204-5p	rat SU5416/hypoxia model, lung	dose not given	relative to: SU5416/hypoxia vehicle	fold change	1.9
Cc1cn(-c2ccc3n(c2=O)CCN([C@@H](C)[C@@H]2CC[C@H](c4cc(F)c(Cl)cc4C(F)(F)F)O2)C3=O)cn1		human, CSF	360 mg once daily, 14 days, multiple dose, single LP	relative to: placebo	CSF Aβ37 increase	372%

Compound	test	test system	conditions	scale	quantity	value
COc1cc(-c2ccccc2)ncc1C(=O)Nc1ccc2c(=O)[nH]c(-c3ccc(C(C)(C)O)cc3)nc2c1	RNA-seq GSEA, refers to: FALLER_ENTEROCYTE_MOUSE	organoids, small intestinal, Apc Q1405X, mouse	dose not given, 3 days, wild-type organoids	relative to: DMSO, direction not given	normalized enrichment score	-1
COc1cc(Nc2ncc3c(n2)-c2ccc(Cl)cc2C(c2c(F)cccc2OC)=NC3)ccc1C(=O)O		mouse, NB-1771 neuroblastoma xenograft	oral, 20.8 mg/kg, day 21	relative to: vehicle	relative tumour volume T/C	0.11
CO[C@H]1CC[C@H](N2C(=O)CNc3ncc(-c4ccc(C(C)(C)O)nc4)nc32)CC1	flow cytometry	stimulated T cells, human, blood	60 mg single dose, 24 h, median	relative to: baseline	p4EBP1 change from baseline	6.2%
COc1nc(NCc2cn(-c3ccc(C(=O)Nc4ccc(Br)cc4)cc3)nn2)nc(OC)n1	cell viability, MTT	normal colonocytes, rat	72 h		IC50	106 ± 5.17 nM
CC(C)C[C@H](NC(=O)[C@@H](Cc1c[nH]c2ccccc12)NC(=O)[C@H](Cc1ccc(O)cc1)NC(=O)[C@H](CO)NC(=O)[C@H](Cc1c[nH]c2ccccc12)NC(=O)[C@H](Cc1c[nH]cn1)NC(=O)[C@@H]1CCC(=O)N1)C(=O)N[C@@H](CCCNC(=N)N)C(=O)N1CCC[C@H]1C(=O)NCC(N)=O	Tanner staging	Chinese boys, central precocious puberty	intramuscular, 22.5 mg day 1, month 6, month 12	relative to: baseline	stable pubic hair stage	75%
NCC(=O)Nc1cncc(-c2nn3c(=O)cc(N4CCNCC4)nc3s2)c1	ADP-induced platelet aggregation, light transmission aggregometry	human stable CAD patients on aspirin, platelets ex vivo	0.075 mg/kg, 360 min post dose, with: 20 µM ADP	relative to: placebo difference	inhibition of platelet aggregation	7.47%
Cc1cccc(N(O)N=Nc2ccc(S(=O)(=O)Nc3cc(C)on3)cc2)c1	carrageenan-induced paw edema	Wistar rat	oral, 100 mg/kg, 4 h after carrageenan, with: carrageenan 1% subplantar	higher = more edema	paw edema volume	4.4 ± 0.73 a.u.
C[C@@H](O)CCOC(=O)C[C@@H](C)O	refers to: Cit	human, plasma	60 min, log2-transformed values		metabolite level	5.09 ± 0.59 µmol/L
O=C(O)CNC(=O)Cc1ccccc1		ventricular cardiomyocytes, C57BL/6 mouse	dose not given, 0.6 s		sarcomere length	1.67 µm
CCOC(=O)c1ccc(N)cc1		CD-1 mouse female	subcutaneous, 6.5 mg/mouse, 0 to 180 min	higher = stronger analgesia	tail flick latency AUC	835 a.u. and 1250 a.u. and 1670 a.u. and 784 a.u. and 441 a.u.
C=CCn1c(=O)c2cnc(Nc3ccc(N4CCN(C)CC4)cc3)nc2n1-c1ccc2c(n1)[C@@](O)(CC)CC2		SW837, NOD/SCID mice, xenograft	oral, 80 mg/kg once daily, day 35	relative to: vehicle	tumour volume difference	328 ± 31.1 mm3
OC(CCN1CCCCC1)(c1ccccc1)C1CC2C=CC1C2 (stereo not shown)	resting-state EEG	healthy elderly humans	oral, 2 mg, eyes closed, LS mean	relative to: baseline	change, beta power, EEG O1-Pz	-1.9%
C=CC[C@@H]1c2ccc(OC)c(OC)c2CN2CCc3cc4c(cc3[C@H]12)OCO4		P2rx7+/+ mouse, S. aureus wound infection	dose not given, day 0	relative to: day 0	relative wound size	1
COc1cc(/C=C/C(=O)N2CCC=CC2=O)cc(OC)c1OC	qRT-PCR, refers to: NFE2L1	nude mouse MDA-MB-468 xenograft, tumour	15 mg/kg, 21 days, normalised to beta-actin, unit not given	relative to: vehicle	mRNA level	0.614
c1ccc(-c2n[nH]cc2-c2ccnc3ccccc23)nc1	kinase binding, competitor, MIB/MS competition, refers to: HRK1	Candida albicans cell lysate	10 µM	relative to: DMSO	log2 fold change	1.66
CCCN(O)N=Nc1ccc(S(=O)(=O)Nc2nccs2)cc1	carrageenan-induced paw edema	Wistar rat	oral, 100 mg/kg, 4 h after carrageenan, with: carrageenan 1% subplantar	higher = more edema	paw edema volume	4.22 ± 0.89 a.u.
COc1cc2cc(-c3ccc(CC(=O)Nc4cc(C(C)(C)C(F)(F)F)no4)cn3)cnc2cc1OC	RECIST v1.1	RET-altered advanced solid tumour patients	oral, 10 mg once daily, phase I		stable disease as best response	100%
Cc1cc(NS(=O)(=O)c2ccc(N=NN(C)O)cc2)no1	carrageenan-induced paw edema	Wistar rat	oral, 100 mg/kg, 4 h after carrageenan, with: carrageenan 1% subplantar	higher = more edema	paw edema volume	4.18 ± 0.46 a.u.
N#Cc1ccc2c(c1)[C@H]1CCCN(C(=O)c3ccc4[nH]cnc4c3)[C@H]1C2	refers to: Triglycerides	human, Phase II trial	oral, 240 mg once daily, day 28, adjusted mean, SE		change from baseline	-37.5 mg/dL
CC#Cc1cncc(-c2ccc3c(c2)[C@@]2(N=C(C)C(N)=N2)[C@]2(CC[C@H](OC)CC2)C3)c1	refers to: Aβ40	beagle dogs, plasma	oral, 24 µmol/kg daily, 2 weeks, 2 h post-dose	relative to: predose	reduction	> 50%

For quick reference, copied from above:
Compound	test	test system	conditions	scale	quantity	value
Cc1n[nH]c2ccc(-c3cc(OC[C@@H](N)Cc4ccccc4)cnc3-c3ccoc3)cc12	kinase binding, competitor, MIB/MS competition, refers to: NIK1	Candida albicans cell lysate	100 nM	relative to: DMSO	log2 fold change	-0.731
Cn1cc(Nc2nccc(-c3ccc4c(c3)CN(C3COC3)CC[C@H]4NC(=O)c3cn(C(C)(C)C)nn3)n2)cn1	refers to: NGF signalling	mouse splenic B cells, mouse	30 mg/kg, IgD-activated B cells in vivo	relative to: vehicle, direction not given	pathway activation z-score	4.24
Cc1cccc(N(O)N=Nc2ccc(S(=O)(=O)Nc3onc(C)c3C)cc2)c1	carrageenan-induced paw edema	Wistar rat	oral, 100 mg/kg, 3 h after carrageenan, with: carrageenan 1% subplantar	higher = more edema	paw edema volume	5.31 ± 0.51 a.u.
